Published values of several laboratories.
Numbered parts are unrelated; each lists some results of a single study. Positions count from the first letter of the parent shown.

Block 1
Target: ABI1, truncated, D143A, DHFR fusion (Arabidopsis thaliana)
Method: DHFR PCA, deep sequencing
Matrix: yeast
Notes: methotrexate growth selection, single substitutions
Together with: (+)-ABA 2500 µM
Relative to: wild-type fitted maximum
Direction: higher = stronger binding
Parent: PYL1, truncated, DHFR fusion (Arabidopsis thaliana); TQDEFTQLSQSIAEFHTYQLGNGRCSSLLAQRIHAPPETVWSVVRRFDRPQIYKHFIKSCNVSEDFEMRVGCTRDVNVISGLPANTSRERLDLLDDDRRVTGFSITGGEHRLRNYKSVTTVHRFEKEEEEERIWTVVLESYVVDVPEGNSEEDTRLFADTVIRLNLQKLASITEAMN
Variant	relative binding score [%]
D48C	79.7
F15P	41.2
V40F	-9
R123K	111
D3Y	92.3
L156K	91
R46P	71.3
R88N	100
R98T	99.9
V44W	-29.3
P36M	96.3
A13I	91.9
C72E	91.4
I33G	-15.2
F47M	19.8
E4Y	102

Block 2
Target: RNA binding protein fox-1 homolog 2, RRM domain, GST-SBP tag (RBFOX2, Homo sapiens, UniProt O43251-10, residues 100-194)
Method: RNA Bind-n-Seq
Molecule type: RNA
Matrix: in vitro
Concentration: 365 nM
Notes: natural RNA segment, single round, ends assumed
Relative to: no-protein control
Direction: higher = stronger binding
Constant ends, left off below: GGGAGUUCUACAGUCCGACGAUC … UGGAAUUCUCGGGUGCCAA
Target sequence (chain): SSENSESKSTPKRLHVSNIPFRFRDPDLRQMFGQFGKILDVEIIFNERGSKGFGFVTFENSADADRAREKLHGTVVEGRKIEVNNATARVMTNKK
Oligonucleotide	RBNS enrichment (R)
ACUCCUAGCCUUGCCGCCUUCAAUAGAGAAGAAAUCCCUUUGCUAGAUAGGGUCCCCCAGGCAGUCCCCAGUGGCGGGACACAGGGGUCCGGCUGUGGAGCUCCCCUGCC	0.858
GCCCAGCCCAGGGGUGCCGUGGAGGACCACCCUGGCAGAGACAUUGCUGAUCCCUGGCUUGGAGCUCCUUGGGGGCCGGCAGGCCUCGACCCCCACCCUAGGGAAUGCAG	0.424
AGAAAAUACCUGAAAAGCAACUUUAUUGCUUCAAUCUGGAUAUAAGUAGUUAUUUAUAAAUAGUUAAGAUUAAUUUAAAUGUAAAAACGUGCUUAAUUCCCUAAUAAUUU	0.367
ACAAUGAAAGACCCUGGCCCUGUCUCUCAAAACUUAACUUUCUCUGUAUGAUUUUUUUUUUAAAAAAAUAUUCCAUUUAUUUUACUUUGUGGUUACUUGAUUUUGAGGAA	0.779
GAUCACAUCCCAGCUCUGCAUGGCCCCUGCUAAGGCUCAGGUAUAACCUCACCUUCCCUGGCUCAUCUUGGCCUUGGGGAGUUGCCUUUAGGCUUGAGUCCUCAAGCCUC	0.236
UCCGGAGGGCGAGACUCCGGCGGAAGCAUUCCCGGGCGGGUGACCCAGCACGGUCCCUCUUGGAAUUGGAUUCGCCAUUUUAUUUUUCUUGCUGCUAAAUCACCGAGCCC	0.676
UCAGGUCUCAGCUAUAAUUCUGUUAUAUGAGGGGCAGUGGACAGUUCCCUAUGCCAACUCACGACUCCUACAGGUACUAGUCACUCAUCUACCAGAUUCUGCCUAUGUAA	0.363
UGCAGAUGAUAAAACUAAUUUUGAACUUUUUAAUUUAUAUAAAUUAUUUUAUAUCACUUACUUAUUUCACUUUAUUUUGCUUUGUGCUCAUUGAUAUAUAUUAGCUGUAC	0.83
CUGGGCCAAAAAAUUUCAGUAGGUCAGUAAUUUAAACUUCACAUCUGGAAAAAAAAUUAUUAAUAAUGUGAAACAAACCAACUUAAAAAGUGAUUCUUGCACAUGAAUUG	0.726
AUGUGGACUCGUAAGAUUCACAGAGAAUGUGUGCUCUGUUGUGAUUCUCUUGUCAUAGUCCUGGUUUGCCAGCUGACUACAGGAUAGACCCAGCUGUCUGGCACUCAAAC	1.27
UGUGGGUGAGGGGCUCAAGGCCCCCCUGGAGGACCUUGGUCUCGAAGCCAUACGUGGUUGUCUGCCUUCCUGAGCAAGGCUUCUCAUCCCAUAUUAAAGGAUCAUCAUCA	0.25
AGGAGGGUGUCUGCAGAAGGUGGAGAGCAGGGGCAGAGGCCCCACUGGCCACCCCCUGCUUCCCAGAGUGAAACCUUGUGCCUGGUGACCAAAGUCCCUCCAAAGUGCUC	0.391

Block 3
Target: Histone acetyltransferase KAT6A, winged helix 1, GST fusion (KAT6A, Homo sapiens, UniProt Q92794, residues 1-85)
Method: protein binding microarray
Molecule type: double-stranded DNA, one strand shown
Matrix: in vitro
Concentration: not given
Notes: 8-mer, flanks averaged, mean of 2 arrays, mostly near background
Relative to: not given
Direction: higher = stronger binding
Residues (chain): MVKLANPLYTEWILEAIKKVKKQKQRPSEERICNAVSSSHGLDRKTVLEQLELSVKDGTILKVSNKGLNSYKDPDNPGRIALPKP
Oligonucleotide	E-score
AATCAATT	-0.13
GGAACCTA	0.0632
CGAGCCGC	0.385
AAGTGATT	-0.138
AGACTTCA	-0.33
AATTGAAA	-0.343
ATCGATGA	-0.209
ATCTACTG	-0.106
AGTCCGAG	-0.0176
TCAGTCGA	-0.147
CAACGACC	-0.0535
ATGTTCCA	-0.146
CGCGGCCC	0.41
CGTCACAC	0.0202
CGATGGGA	0.111
ATGATCAT	-0.0149
CGTTAAAC	0.00116
AACTCGAA	-0.163
AGAACTCA	-0.159
CGCTTAAC	0.184
ACGATAGT	-0.169
CCTGGTTA	-0.269
ATAAAGAA	-0.1

Block 4
Target: JUN, bZIP domain (human)
Method: DHFR protein complementation
Matrix: yeast
Notes: single substitutions, most at no-binding floor
Relative to: wild-type JUN-FOS pair
Direction: higher = stronger binding
Parent: JUN, bZIP domain (human); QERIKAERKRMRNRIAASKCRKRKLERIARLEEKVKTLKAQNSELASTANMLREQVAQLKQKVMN; partner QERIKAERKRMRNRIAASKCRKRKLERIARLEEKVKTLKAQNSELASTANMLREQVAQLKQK
Variant	binding fitness [natural log]
E44R	-0.448
S43A	0.00779
Q55F	-1.18
E32D	-0.852
V35Y	-0.582
L45I	-0.798
K34V	-0.163
A29V	-0.604
T37Y	-0.203
L45F	-1.07
L59H	-1.08
I28F	-1.01
Q55D	-0.95
S43L	-0.184
A40N	-0.369
R30N	-0.297
S43G	-0.299
E44T	-0.48

Block 5
Target: Sal-like protein 4, full length isoform B (SALL4, Homo sapiens, UniProt Q9UJQ4-2, residues 1-616)
Method: universal PBM
Molecule type: double-stranded DNA, one strand shown
Matrix: in vitro
Concentration: not given
Notes: 8-mer, flanks averaged, mean of replicates
Direction: higher = stronger binding
Oligonucleotide	E-score
CTGGGAAC	-0.203
ACCTGTAA	0.123
GAACTCTA	-0.0715
AATAGATT	0.286
AAGACACG	0.113
ATTAGGAA	0.198
CCCCATGC	-0.158
AGCGGAAT	0.0247
ACCGCATC	-0.198
ATGCCCAT	-0.0785
TATAGTAA	0.295
AAACTCTG	0.171
AACTTTCG	0.0664
CCCACATA	0.13
CGGTCCGC	-0.317
GCCCAGGC	-0.315
ACTGTCTG	-0.0471
TAGATTCA	0.0314
GCCAAGTA	-0.184
ATCCATCA	0.0595
ACATGCTA	0.0531
AAGAGATC	-0.0967
CGGGATGA	-0.199
AAAAACGC	-0.0018
CAATAGCC	0.0243

Block 6
Target: CCND2, cyclin fold, Cln2 fusion (human)
Method: yeast growth competition, sequencing
Matrix: yeast
Notes: weak parent motif
Relative to: not given
Direction: higher = stronger binding
Parent: PKMYT1 docking peptide (human); SFEPRNLLSLFED
Variant	normalised enrichment score
SFEPRNLLSLFEG [D13G]	0.0905
SDEPRNLLSLFED [F2D]	0.303
SFEPRNLVSLFED [L8V]	-0.325
SFEPRNLLSLWED [F11W]	0.525
SFEPRNLLMLFED [S9M]	0.115
SFEPRNLLSCFED [L10C]	0.169
PFEPRNLLSLFED [S1P]	0.407
SFEPRNLLSIFED [L10I]	0.192
SFEPRNLLFLFED [S9F]	0.298
SFEPRNLLSLFID [E12I]	0.434
SFEPRNKLSLFED [L7K]	-0.498
SFEPRNLLSLFQD [E12Q]	-0.0269
SFEPRNLLSSFED [L10S]	-0.343
IFEPRNLLSLFED [S1I]	-0.209
SFEPRNLLSLFMD [E12M]	-0.071
SFEPRNLESLFED [L8E]	-2.11
SSEPRNLLSLFED [F2S]	-0.0632
SFEPRVLLSLFED [N6V]	-0.0756
SFEPRNLLSTFED [L10T]	0.124
SFEFRNLLSLFED [P4F]	0.0533
SFEPRNLLWLFED [S9W]	0.256
SFEPRNFLSLFED [L7F]	0.0939
SFEPRNLLSLDED [F11D]	0.188
SFEPRNLLSLFSD [E12S]	0.0117
SFEPRNLLSLFTD [E12T]	-0.234

Single results of other studies
Substance	target	test	test system	conditions	scale	measurement	result
PhoQ, residues 284 288 289 292 302 303 TNASYF	PhoP, residues 12 14 15 18 19 VQALL (Escherichia coli, UniProt P23836)	Sort-seq, measured: YFP reporter	E. coli	PhoQ-PhoP variant library, together with: 10 µM Mg2+	relative to: high Mg2+ state, higher = stronger signaling	fold induction	15.1

A few entries again (block 4):
Variant	binding fitness [natural log]
E32D	-0.852
A40N	-0.369
T37Y	-0.203
V35Y	-0.582
R30N	-0.297
S43L	-0.184
S43G	-0.299
L45I	-0.798
L59H	-1.08
Q55F	-1.18
E44T	-0.48
E44R	-0.448
K34V	-0.163
I28F	-1.01
Q55D	-0.95
A29V	-0.604
